Results of several laboratories.
Compare with care: the assays were run in different laboratories. Numbers after ± are the reported error.
Partner: itself
B1: MIB1 936-1006 (Homo sapiens, UniProt Q86YT6); sequence looked up; chain KDKDNTNVNADVQKLQQQLQDIKEQTMCPVCLDRLKNMIFLCGHGTCQLCGDRMSECPICRKAIERRILLY
B2: XPR1 (Homo sapiens, UniProt Q9UBH6); sequence looked up; chain MKFAEHLSAHITPEWRKQYIQYEAFKDMLYSAQDQAPSVEVTDEDTVKRYFAKFEEKFFQTCEKELAKINTFYSEKLAEAQRRFATLQNELQSSLDAQKESTGVTTLRQRRKPVFHLSHEERVQHRNIKDLKLAFSEFYLSLILLQNYQNLNFTGFRKILKKHDKILETSRGADWRVAHVEVAPFYTCKKINQLISETEAVVTNELEDGDRQKAMKRLRVPPLGAAQPAPAWTTFRVGLFCGIFIVLNITLVLAAVFKLETDRSIWPLIRIYRGGFLLIEFLFLLGINTYGWRQAGVNHVLIFELNPRSNLSHQHLFEIAGFLGILWCLSLLACFFAPISVIPTYVYPLALYGFMVFFLINPTKTFYYKSRFWLLKLLFRVFTAPFHKVGFADFWLADQLNSLSVILMDLEYMICFYSLELKWDESKGLLPNNSEESGICHKYTYGVRAIVQCIPAWLRFIQCLRRYRDTKRAFPHLVNAGKYSTTFFMVTFAALYSTHKERGHSDTMVFFYLWIVFYIISSCYTLIWDLKMDWGLFDKNAGENTFLREEIVYPQKAYYYCAIIEDVILRFAWTIQISITSTTLLPHSGDIIATVFAPLEVFRRFVWNFFRLENEHLNNCGEFRAVRDISVAPLNADDQTLLEQMMDQDDGVRNRQKNRSWKYNQSISLRRPRLASQSKARDTKVLIEDTDDEANT
B3: S100A5 (Homo sapiens, UniProt P33763); sequence looked up; chain METPLEKALTTMVTTFHKYSGREGSKLTLSRKELKELIKKELCLGEMKESSIDDLMKSLDKNSDQEIDFKEYSVFLTMLCMAYNDFFLEDNK
B4: GajA 1-578 (Bacillus cereus, UniProt J8H9C1); chain MKFSNITIKNFRNFEKVNINLDNKNVIFGMNDIGKTNFLYALRFLLDKEIRKFGFNKSDYHKHDTSKKIEIILTLDLSNYEKDEDTKKLISVVKGARTSANADVFYIALESKYDDKELYGNIILKWGSELDNLIDIPGRGNINALDNVFKVIYINPLVDLDKLFAQNKKYIFEESQGNESDEGILNNIKSLTDQVNQQIGEMTIIKGFQQEITSEYRSLKKEEVSIELKSEMAIKGFFSDIIPYIKKDGDSNYYPTSGDGRRKMLSYSIYNYLAKKKYEDKIVIYLIEEPEISLHRSMQIALSKQLFEQSTYKYFFLSTHSPELLYEMDNTRLIRVHSTEKVVCSSHMYNVEEAYGSVKKKLNKALSSALFAERVLLIEGPSEKILFEKVLDEVEPEYELNGGFLLEVGGTYFNHYVCTLNDLGITHIIKTDNDLKSKKGKKGVYELLGLNRCLNLLGRENLDEITIDIPEDIKGKKKKERLNERKKEIFKQYKNEVGEFLGERIYLSEIDLENDLYSAIGESMKRIFENEDPVHYLQKSKLFNMVELVNNLSTKDCFDVFEHEKFACLKELVGSDRG
B5: ddrC 99-231 (Deinococcus radiodurans, UniProt Q9RYE6); sequence looked up; chain RVAAQIAERNPEPDARRWLAARLESTGARRELLATVARHGGEGRVYGQLGSISNRTVLGKDSASVRQERGVKATRDGLTSAELLRLAYIDTVTARAIQESEARGNAAILTLHEQVARSERQSWERAGQVQRVG
B6: S100A3 (Homo sapiens, UniProt P33764); sequence looked up; chain MARPLEQAVAAIVCTFQEYAGRCGDKYKLCQAELKELLQKELATWTPTEFRECDYNKFMSVLDTNKDCEVDFVEYVRSLACLCLYCHEYFKDCPSEPPCSQ
B7: BTK SH3-SH2 215-378 P327A (Mus musculus, UniProt P35991); sequence looked up; chain ELKKVVALYDYMPMNANDLQLRKGEEYFILEESNLPWWRARDKNGQEGYIPSNYITEAEDSIEMYEWYSKHMTRSQAEQLLKQEGKEGGFIVRDSSKAGKYTVSVFAKSTGEAQGVIRHYVVCSTPQSQYYLAEKHLFSTIPELINYHQHNSAGLISRLKYPVS
B8: NUP60 48-162 (Saccharomyces cerevisiae, UniProt P39705); sequence looked up; chain VSPRNNVANKQPRNESFNRRISSMPGGYFHSEISPDSTVNRSVVVSAVGEARNDIENKEEEYDETHETNISNAKLANFFSKKGNEPLSEIEIEGVMSLLQKSSKSMITSEGEQKS
B9: NAC92 12-170 H141A (Arabidopsis thaliana, UniProt Q9FKA0); sequence looked up; chain VEDEEHIDLPPGFRFHPTDEELITHYLKPKVFNTFFSATAIGEVDLNKIEPWDLPWKAKMGEKEWYFFCVRDRKYPTGLRTNRATEAGYWKATGKDKEIFKGKSLVGMKKTLVFYKGRAPKGVKTNWVMAEYRLEGKYCIENLPQTAKNEWVICRVFQK
B10: Ikbkg 1-355 C54S/K285N (Mus musculus, UniProt O88522); sequence looked up; chain MNKHPWKNQLSEMVQPSGGPAEDQDMLGEESSLGKPAMLHLPSEQGTPETLQRSLEENQELRDAIRQSNQMLRERCEELLHFQVSQREEKEFLMCKFQEARKLVERLSLEKLDLRSQREQALKELEQLKKCQQQMAEDKASVKAQVTSLLGELQESQSRLEAATKDRQALEGRIRAVSEQVRQLESEREVLQQQHSVQVDQLRMQNQSVEAALRMERQAASEEKRKLAQLQAAYHQLFQDYDSHIKSSKGMQLEDLRQQLQQAEEALVAKQELIDKLKEEAEQHNIVMETVPVLKAQADIYKADFQAERHAREKLVEKKEYLQEQLEQLQREFNKLKVGCHESARIEDMRKRHVE
B11: protein 660-963 (Penicillium verruculosum, UniProt A0A348FUE1); sequence looked up; chain SYYQRSDWTADEEQILLGPFDYLESLPGKNMRSQLIQSFNTWLKVPTESLDVIIKVISMLHTASLLIDDIQDQSILRRGQPVAHSIFGTAQAMNSGNYVYFLALREVQKLQNPKAISIYVDSLIDLHRGQGMELFWRDSLMCPTEEQYLDMVANKTGGLFCLAIQLMQAEATIQVDFIPLVRLLGIIFQICDDYLNLKSTAYTDNKGLCEDLTEGKFSFPIIHSIRSNPGNRQLINILKQKPREDDIKRYALSYMESTNSFEYTRGVVRKLKTEAIDTIQGLEKHGLEENIGIRKILARMSLEL
B12: S100A8 (Homo sapiens, UniProt P05109); sequence looked up; chain MLTELEKALNSIIDVYHKYSLIKGNFHAVYRDDLKKLLETECPQYIRKKGADVWFKELDINTDGAVNFQEFLILVIKMGVAAHKKSHEESHKE
B13: Creb1 270-341 (Rattus norvegicus, UniProt P15337-1); sequence looked up; chain SSPALPTQPAEEAARKREVRLMKNREAARECRRKKKEYVKCLENRVAVLENQNKTLIEELKALKDLYCHKSD
B14: trfB R48A/Q53A (Escherichia coli, UniProt P03052); sequence looked up; chain MKKRLTESQFQEAIQGLEVGQQTIEIARGVLVDGKPQATFATSLGLTAGAVSAAVHRVWAAFEDKNLPEGYARVTAVLPEHQAYIVRKWEADAKKKQETKR
B15: ADRB1 W183A (Homo sapiens, UniProt P08588); sequence looked up; chain MGAGVLVLGASEPGNLSSAAPLPDGAATAARLLVPASPPASLLPPASESPEPLSQQWTAGMGLLMALIVLLIVAGNVLVIVAIAKTPRLQTLTNLFIMSLASADLVMGLLVVPFGATIVVWGRWEYGSFFCELWTSVDVLCVTASIETLCVIALDRYLAITSPFRYQSLLTRARARGLVCTVAAISALVSFLPILMHWWRAESDEARRCYNDPKCCDFVTNRAYAIASSVVSFYVPLCIMAFVYLRVFREAQKQVKKIDSCERRFLGGPARPPSPSPSPVPAPAPPPGPPRPAAAAATAPLANGRAGKRRPSRLVALREQKALKTLGIIMGVFTLCWLPFFLANVVKAFHRELVPDRLFVFFNWLGYANSAFNPIIYCRSPDFRKAFQGLLCCARRAARRRHATHGDRPRASGCLARPGPPPSPGAASDDDDDDVVGATPPARLLEPWAGCNGGAAADSDSSLDEPCRPGFASESKV
UniProt P46822, sequence (whole entry, looked up): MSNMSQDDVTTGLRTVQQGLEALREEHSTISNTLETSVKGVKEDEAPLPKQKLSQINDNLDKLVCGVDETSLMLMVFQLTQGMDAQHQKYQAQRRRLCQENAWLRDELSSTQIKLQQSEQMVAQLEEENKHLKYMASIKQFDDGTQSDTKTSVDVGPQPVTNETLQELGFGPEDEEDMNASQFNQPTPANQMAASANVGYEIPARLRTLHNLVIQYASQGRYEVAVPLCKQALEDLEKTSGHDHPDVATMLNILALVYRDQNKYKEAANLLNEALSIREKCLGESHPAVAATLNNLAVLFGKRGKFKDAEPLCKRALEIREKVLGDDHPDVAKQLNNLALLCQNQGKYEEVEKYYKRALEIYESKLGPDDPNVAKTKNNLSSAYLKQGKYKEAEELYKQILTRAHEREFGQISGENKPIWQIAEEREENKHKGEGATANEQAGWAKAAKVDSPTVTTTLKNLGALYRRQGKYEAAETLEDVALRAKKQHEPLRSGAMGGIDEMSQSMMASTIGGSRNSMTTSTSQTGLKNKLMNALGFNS
UniProt Q9BQ39, sequence (whole entry, looked up): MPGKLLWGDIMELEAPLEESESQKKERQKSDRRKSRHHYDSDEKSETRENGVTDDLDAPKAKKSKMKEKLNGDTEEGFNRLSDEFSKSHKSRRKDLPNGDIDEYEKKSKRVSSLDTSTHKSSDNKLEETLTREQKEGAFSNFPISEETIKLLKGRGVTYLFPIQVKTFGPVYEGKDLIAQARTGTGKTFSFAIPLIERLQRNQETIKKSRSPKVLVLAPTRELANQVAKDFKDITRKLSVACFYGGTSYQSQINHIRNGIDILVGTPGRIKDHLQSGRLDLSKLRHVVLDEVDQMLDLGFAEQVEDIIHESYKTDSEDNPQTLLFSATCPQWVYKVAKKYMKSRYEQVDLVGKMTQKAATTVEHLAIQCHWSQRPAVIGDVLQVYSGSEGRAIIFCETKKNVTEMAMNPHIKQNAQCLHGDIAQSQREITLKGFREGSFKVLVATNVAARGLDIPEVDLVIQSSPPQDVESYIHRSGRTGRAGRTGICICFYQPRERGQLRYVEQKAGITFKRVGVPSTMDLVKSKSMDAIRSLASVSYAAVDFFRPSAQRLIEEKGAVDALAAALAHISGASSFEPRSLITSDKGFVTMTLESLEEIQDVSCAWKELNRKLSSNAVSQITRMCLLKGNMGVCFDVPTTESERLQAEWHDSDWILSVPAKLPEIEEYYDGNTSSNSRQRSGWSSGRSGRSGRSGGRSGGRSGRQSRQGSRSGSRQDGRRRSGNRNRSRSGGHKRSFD

Molecule	assay	test system	conditions	scale	measurement	value
B1 (MIB1 936-1006)	crystal structure	–	–	–	subunits per oligomer	2
B2 (XPR1)	cryo-EM	–	–	–	subunits per oligomer	2
B3 (S100A5)	AUC	–	added: calcium	–	Kd	70 ± 15 µM
B4 (GajA 1-578)	cryo-EM	–	D2 symmetry, GajA alone	–	subunits per oligomer	4
B5 (ddrC 99-231)	SEC-MALS	–	–	–	subunits per oligomer	1.96 ± 0.35 n-mer
B6 (S100A3)	AUC	–	–	–	Kd	30 ± 6 µM
B7 (BTK SH3-SH2 215-378 P327A)	SEC	–	room temperature	–	dimer half-life	40.8 min
B8 (NUP60 48-162)	ITC	–	dimer dissociation	–	Kd	76.3 µM
RQIVDAQAVCTRCKESADFWCFECEQLLCAKCFEAHQWFLKHEARPLAE (PML 120-168 (Homo sapiens, UniProt P29590-1); sequence looked up)	NMR titration	–	–	–	Kd	167 ± 32 µM
B9 (NAC92 12-170 H141A)	SEC	–	pH 7.5	–	subunits per oligomer	2
DDX50 (Homo sapiens, UniProt Q9BQ39)	MST	–	added: glucose 350 µM	baseline: no glucose, higher = greater reduction in dimerization	dimerization change	> 4 fold
B10 (Ikbkg 1-355 C54S/K285N)	SEC-MALS	–	–	–	Kd	27.5 µM
B11 (protein 660-963)	X-ray crystallography	–	–	–	subunits per oligomer	6
B12 (S100A8)	AUC	–	without Ca2+ unclear, added: Ca2+	–	Kd	6 ± 2 µM
B13 (Creb1 270-341)	mass photometry	–	–	–	Kd	0.015 µM
VSRVSREELEDRFLRMHDENILLKQHARKQEDKIKRMATKLIRLVNDKKRYERVGG (RPGRIP1L CC1 42-97 L57M (Mus musculus, UniProt Q8CG73); sequence looked up)	SEC-MALS	–	–	–	subunits per oligomer	2
B14 (trfB R48A/Q53A)	SEC	–	–	–	subunits per oligomer	2
klc-2 (Caenorhabditis elegans, UniProt P46822)	mass photometry	–	–	–	dimer particles	21 % peak
B15 (ADRB1 W183A)	BRET	HEK293	24 h, added: alprenolol 10 µM	–	BRET50	0.56 GFP/Rluc ratio

Repeated from above:
Molecule	assay	test system	conditions	scale	measurement	value
B3 (S100A5)	AUC	–	added: calcium	–	Kd	70 ± 15 µM
B15 (ADRB1 W183A)	BRET	HEK293	24 h, added: alprenolol 10 µM	–	BRET50	0.56 GFP/Rluc ratio
